Measured values collected from several papers.
“And” joins repeats or separate records; there may be more than shown. ± marks the error that the study gave.
TOP2A: DNA topoisomerase 2-alpha (TOP2A, Homo sapiens, UniProt P11388)
Chain of UniProt P11388 (whole entry, looked up): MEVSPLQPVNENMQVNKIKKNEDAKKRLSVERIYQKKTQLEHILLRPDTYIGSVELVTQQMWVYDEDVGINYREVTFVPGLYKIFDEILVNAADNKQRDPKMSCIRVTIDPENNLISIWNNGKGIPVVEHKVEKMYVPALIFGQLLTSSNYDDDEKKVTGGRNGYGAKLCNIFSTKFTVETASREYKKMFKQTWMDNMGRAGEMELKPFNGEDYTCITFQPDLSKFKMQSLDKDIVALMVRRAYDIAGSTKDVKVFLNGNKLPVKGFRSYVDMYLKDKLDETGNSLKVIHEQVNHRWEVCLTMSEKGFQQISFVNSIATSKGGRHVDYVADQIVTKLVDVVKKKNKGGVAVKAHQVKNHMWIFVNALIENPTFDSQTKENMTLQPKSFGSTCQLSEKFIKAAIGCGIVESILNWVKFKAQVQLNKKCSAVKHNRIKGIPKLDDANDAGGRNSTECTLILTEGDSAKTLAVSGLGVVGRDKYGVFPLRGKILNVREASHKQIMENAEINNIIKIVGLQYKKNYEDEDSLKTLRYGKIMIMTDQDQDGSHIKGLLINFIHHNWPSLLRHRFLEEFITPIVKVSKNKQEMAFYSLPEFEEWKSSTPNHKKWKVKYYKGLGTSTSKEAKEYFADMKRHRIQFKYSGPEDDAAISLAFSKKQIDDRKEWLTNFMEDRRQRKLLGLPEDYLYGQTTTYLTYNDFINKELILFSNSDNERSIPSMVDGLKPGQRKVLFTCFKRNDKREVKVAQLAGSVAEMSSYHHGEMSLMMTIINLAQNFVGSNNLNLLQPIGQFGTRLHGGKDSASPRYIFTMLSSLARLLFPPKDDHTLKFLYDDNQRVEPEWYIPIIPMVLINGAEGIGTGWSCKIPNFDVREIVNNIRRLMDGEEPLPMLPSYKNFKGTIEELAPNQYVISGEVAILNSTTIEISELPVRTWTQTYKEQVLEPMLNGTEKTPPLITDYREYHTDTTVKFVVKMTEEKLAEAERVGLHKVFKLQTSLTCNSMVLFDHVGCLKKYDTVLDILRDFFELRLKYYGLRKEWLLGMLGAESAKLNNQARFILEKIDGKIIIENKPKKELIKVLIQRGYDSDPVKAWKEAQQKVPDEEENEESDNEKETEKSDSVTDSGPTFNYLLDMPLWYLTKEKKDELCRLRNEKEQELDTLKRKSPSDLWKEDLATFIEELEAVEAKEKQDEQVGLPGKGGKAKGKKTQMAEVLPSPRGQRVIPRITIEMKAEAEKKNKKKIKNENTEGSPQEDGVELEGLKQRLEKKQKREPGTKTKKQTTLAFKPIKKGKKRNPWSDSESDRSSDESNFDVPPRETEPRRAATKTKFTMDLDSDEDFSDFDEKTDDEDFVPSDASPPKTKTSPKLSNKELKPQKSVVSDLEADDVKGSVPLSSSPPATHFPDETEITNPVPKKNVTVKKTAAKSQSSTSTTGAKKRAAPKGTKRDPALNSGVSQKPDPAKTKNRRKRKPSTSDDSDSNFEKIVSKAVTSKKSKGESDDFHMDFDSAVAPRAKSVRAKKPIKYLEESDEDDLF
BEST2: Bestrophin-2a (BEST2, Homo sapiens, UniProt Q8NFU1)
Chain of UniProt Q8NFU1 (whole entry, looked up): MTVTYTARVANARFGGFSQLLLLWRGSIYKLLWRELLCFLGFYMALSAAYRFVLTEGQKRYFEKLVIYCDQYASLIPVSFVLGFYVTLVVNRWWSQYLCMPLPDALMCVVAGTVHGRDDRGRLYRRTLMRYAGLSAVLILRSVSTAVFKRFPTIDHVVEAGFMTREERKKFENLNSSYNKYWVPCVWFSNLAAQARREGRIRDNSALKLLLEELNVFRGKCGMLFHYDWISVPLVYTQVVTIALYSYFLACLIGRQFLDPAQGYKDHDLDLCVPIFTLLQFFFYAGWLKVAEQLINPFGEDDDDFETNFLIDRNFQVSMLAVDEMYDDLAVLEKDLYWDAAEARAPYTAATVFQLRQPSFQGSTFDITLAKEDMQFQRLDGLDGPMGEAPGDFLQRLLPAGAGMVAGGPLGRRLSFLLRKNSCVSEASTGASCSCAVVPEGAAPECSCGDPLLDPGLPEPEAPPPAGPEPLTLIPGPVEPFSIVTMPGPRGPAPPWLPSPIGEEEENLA
Cereblon/Ikaros: Cereblon/Ikaros (Homo sapiens, UniProt Q13422+Q96SW2)
Pteridine reductase 1: Pteridine reductase 1 (Leishmania major, UniProt Q01782)
Chain of UniProt P28331 (whole entry, looked up): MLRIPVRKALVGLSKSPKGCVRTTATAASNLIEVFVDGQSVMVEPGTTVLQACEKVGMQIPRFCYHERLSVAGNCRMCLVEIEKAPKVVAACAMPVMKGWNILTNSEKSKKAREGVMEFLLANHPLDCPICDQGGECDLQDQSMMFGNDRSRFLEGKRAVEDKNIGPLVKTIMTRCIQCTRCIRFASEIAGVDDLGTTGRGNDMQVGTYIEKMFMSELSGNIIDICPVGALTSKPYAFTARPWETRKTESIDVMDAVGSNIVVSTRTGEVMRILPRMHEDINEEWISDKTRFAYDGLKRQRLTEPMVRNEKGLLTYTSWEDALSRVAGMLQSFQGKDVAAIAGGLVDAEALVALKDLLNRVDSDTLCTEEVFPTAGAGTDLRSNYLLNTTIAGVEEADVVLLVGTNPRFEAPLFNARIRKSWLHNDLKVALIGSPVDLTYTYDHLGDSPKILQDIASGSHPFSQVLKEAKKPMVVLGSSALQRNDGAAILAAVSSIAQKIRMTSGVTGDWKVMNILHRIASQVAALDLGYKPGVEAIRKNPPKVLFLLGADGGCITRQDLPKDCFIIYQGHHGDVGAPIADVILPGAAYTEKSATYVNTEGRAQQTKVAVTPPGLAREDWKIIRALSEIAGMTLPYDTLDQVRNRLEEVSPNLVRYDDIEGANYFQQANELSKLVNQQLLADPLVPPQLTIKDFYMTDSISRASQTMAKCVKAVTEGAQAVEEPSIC
Chain of UniProt P05164 (whole entry, looked up): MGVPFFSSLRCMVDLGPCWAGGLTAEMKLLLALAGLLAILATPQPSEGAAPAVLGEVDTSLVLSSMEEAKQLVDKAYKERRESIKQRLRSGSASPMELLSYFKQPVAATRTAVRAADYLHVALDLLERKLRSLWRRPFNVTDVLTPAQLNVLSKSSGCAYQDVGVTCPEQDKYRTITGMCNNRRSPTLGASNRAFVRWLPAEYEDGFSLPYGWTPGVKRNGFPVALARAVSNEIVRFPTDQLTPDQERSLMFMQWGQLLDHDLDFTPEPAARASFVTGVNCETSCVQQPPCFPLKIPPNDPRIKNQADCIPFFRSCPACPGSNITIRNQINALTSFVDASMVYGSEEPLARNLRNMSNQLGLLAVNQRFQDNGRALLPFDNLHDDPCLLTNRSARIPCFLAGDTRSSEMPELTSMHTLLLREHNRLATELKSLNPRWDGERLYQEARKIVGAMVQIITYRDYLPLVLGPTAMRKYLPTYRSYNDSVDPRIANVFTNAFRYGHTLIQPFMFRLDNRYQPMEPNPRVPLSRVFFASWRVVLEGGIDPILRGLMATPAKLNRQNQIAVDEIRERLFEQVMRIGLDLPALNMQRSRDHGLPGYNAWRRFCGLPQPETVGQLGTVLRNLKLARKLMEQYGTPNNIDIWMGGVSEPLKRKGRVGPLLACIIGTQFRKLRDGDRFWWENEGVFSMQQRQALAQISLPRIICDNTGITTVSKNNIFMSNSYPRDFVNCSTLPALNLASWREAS
Chain of UniProt Q16774 (whole entry, looked up): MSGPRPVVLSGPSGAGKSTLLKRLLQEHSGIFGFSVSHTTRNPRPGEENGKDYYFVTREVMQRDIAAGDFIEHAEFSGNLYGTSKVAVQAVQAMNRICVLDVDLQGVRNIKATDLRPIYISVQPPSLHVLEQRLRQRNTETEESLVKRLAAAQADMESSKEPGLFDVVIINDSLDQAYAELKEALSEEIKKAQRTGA
Chain of UniProt P51575 (whole entry, unmodified, looked up): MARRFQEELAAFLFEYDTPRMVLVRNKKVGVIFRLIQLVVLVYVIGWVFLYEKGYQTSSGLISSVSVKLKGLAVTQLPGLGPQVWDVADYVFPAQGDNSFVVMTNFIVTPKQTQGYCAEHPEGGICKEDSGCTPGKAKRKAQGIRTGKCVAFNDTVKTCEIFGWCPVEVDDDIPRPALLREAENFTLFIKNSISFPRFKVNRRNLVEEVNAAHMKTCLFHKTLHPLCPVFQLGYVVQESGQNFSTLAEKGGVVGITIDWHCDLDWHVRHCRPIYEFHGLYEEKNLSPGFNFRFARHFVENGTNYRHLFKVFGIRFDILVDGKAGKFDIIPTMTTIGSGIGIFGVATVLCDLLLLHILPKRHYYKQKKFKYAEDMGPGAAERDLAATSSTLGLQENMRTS
Chain of UniProt P10276 (whole entry, looked up): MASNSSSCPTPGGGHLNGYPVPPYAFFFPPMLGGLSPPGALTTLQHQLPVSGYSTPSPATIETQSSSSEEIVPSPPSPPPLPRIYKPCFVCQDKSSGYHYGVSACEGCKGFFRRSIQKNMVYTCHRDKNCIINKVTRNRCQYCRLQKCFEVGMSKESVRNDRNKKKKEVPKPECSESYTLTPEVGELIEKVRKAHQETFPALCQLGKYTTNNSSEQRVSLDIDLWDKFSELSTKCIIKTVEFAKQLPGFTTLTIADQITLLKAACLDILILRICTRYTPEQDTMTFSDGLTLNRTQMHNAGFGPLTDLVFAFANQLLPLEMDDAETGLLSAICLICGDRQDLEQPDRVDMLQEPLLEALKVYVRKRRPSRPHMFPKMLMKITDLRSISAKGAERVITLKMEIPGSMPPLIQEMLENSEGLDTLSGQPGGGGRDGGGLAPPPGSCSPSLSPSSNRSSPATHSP
Chain of UniProt Q01782 (whole entry, looked up): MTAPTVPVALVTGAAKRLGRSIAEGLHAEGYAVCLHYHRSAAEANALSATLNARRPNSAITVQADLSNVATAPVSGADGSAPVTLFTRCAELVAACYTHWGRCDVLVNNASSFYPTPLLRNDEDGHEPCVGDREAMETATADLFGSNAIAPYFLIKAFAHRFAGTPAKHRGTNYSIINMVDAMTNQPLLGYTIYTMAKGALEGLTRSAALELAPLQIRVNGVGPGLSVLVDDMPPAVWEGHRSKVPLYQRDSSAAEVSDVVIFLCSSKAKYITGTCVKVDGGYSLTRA
Chain of UniProt P29373 (whole entry, unmodified, looked up): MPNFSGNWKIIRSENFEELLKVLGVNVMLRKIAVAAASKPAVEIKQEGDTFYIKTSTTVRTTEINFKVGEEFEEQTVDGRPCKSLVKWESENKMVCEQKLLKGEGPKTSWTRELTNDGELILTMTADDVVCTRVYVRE

For `COc1ccc(OC)c(-c2cc(C(C)=O)n3ccccc23)c1`, the inhibition was over 90% (BRD9 (Homo sapiens, UniProt Q9H8M2); AlphaScreen; 1 µM).
The selectivity ratio of `O=C(CCCCc1ccc(CO)cc1)C(F)(F)C(F)(F)F` is reported as 362 (PLA2G6 (Homo sapiens, UniProt O60733); PLA2 activity; relative to: IC50 GV sPLA2 over IC50 PLA2G6).
For `COCCNc1nc2ccc(C#CC3(O)CCCCC3)cc2n1-c1ccnc(N)n1`, “remaining kinase activity” read 51% (FES (Homo sapiens, UniProt P07332); enzyme activity, inhibitor, Z'-LYTE; 1 µM; relative to: no-inhibitor control).
The degradation of `Cc1c(COc2ccc(CN3CCCCC3C(=O)NCCCCCCNC(=O)CN(C)CCCC34CCC(c5ccccc53)c3ccccc34)cc2Br)cccc1-c1ccccc1` (stereo not drawn) is reported as 18.5 ± 3.1% (CD274 (Homo sapiens, UniProt Q9NZQ7); degrader, western blot; HL-60; 1 µM).
`O=C1NC(=O)C(c2cnc3ccccn23)=C1c1cn2c3c(cc(F)cc13)CN(C(=O)N1CCCCC1)CC2` gave a Hill slope of -0.882 (PKN1 (Homo sapiens, UniProt Q16512); inhibitor).
For `CC(C)c1ccc(CSc2nc(SCc3ccc4sccc4c3)[nH]c(=O)n2)cc1`, the decatenated DNA was 0% (TOP2A; decatenation; 125 µM, replicate 2).
With `O=C(Nc1cccc2ncccc12)C1CCCN(S(=O)(=O)c2cccs2)C1` (stereo not drawn) the SPR response was 8.73 RU (AASS, LKR domain (Homo sapiens, UniProt Q9UDR5); binding, surface plasmon resonance; 45 µM).
`CC(=O)N[C@H](C(=O)N1C[C@H](O)C[C@H]1C(=O)NCc1ccc(-c2scnc2C)cc1)C(C)(C)SCCCCCCNC(=O)C[C@@H]1N=C(c2ccc(Cl)cc2)c2c(sc(C)c2C)-n2c(C)nnc21` gave a ΔH of -9.8 ± 0.9 kcal/mol (Bromodomain-containing protein 4, BD2 (BRD4, Homo sapiens, UniProt O60885); ITC; 25 °C, binary).
The thermal shift of `CCC[C@H](N)C(=O)O` is reported as 6.59 °C (Uncharacterized protein (Pelagibacter ubique, UniProt Q4FM26); differential scanning fluorimetry; Candidatus Pelagibacter ubique; in-house screen).
`C[C@@H]1C[C@H](Nc2ccccc2)c2cc(F)ccc2N1C(=O)c1ccnc(F)c1` gave a pIC50 Z-score of 1.06 (Ecdysone receptor (Aedes albopictus, UniProt Q9U3Y4); ligand binding, inhibitor; intact cells; together with: [3H]ponasterone A; direction not given).
`O=C(O)C1=CCNCC1` has a current density of 0.06 pA/pF and 0.03 pA/pF and 0.08 pA/pF and 0.01 pA/pF (BEST2; whole-cell patch clamp; HEK293 transiently expressing channel; concentration not given, membrane potential 0 mV).
`CCCCC[C@H](O)/C=C/[C@H]1[C@H](O)CC(=O)[C@@H]1C/C=C\CCCC(=O)O` gave an Emax of 33 ± 6.99% (PTGER1 (Homo sapiens, UniProt P34995, W310A); IP1 accumulation, agonist; AD293; 1 h, EP1 W310A mutant).
For `Nc1ccc(C(=O)O)cc1`, the current density was -46.7 pA/pF and -139 pA/pF and -190 pA/pF and -169 pA/pF and -97.3 pA/pF and -219 pA/pF (BEST2; whole-cell patch clamp; HEK293 transiently expressing channel; concentration not given, membrane potential -60 mV).
With `OCCN1CCN(CCCN2c3ccccc3Sc3ccc(C(F)(F)F)cc32)CC1` the Hill slope was 1.02 ± 0.35 (KCNK2 (Homo sapiens, UniProt O95069); PIP2 binding, BRET competition; together with: FL-PIP2 500 nM).
With `O=C(O)c1ccc([N+](=O)[O-])cc1` the current density was 18.3 pA/pF and 75.5 pA/pF and 61 pA/pF and 49.4 pA/pF and 63 pA/pF (BEST2; whole-cell patch clamp; HEK293 transiently expressing channel; concentration not given, membrane potential 20 mV).
`CC(NC(=O)CCCc1ccc2ccc3cccc4ccc1c2c34)C(=O)NO` (stereo not drawn) gave a binding stoichiometry of 0.9 (HDAC8 (Homo sapiens, UniProt Q9BY41); ITC; Tris buffer; concentration not given, pH 7.5).
For `O=C(COP(=O)(O)O)[C@@H](O)[C@H](O)[C@H](O)COP(=O)(O)O`, “thermal stability ratio” read 0.714 and 0.4 and 0.438 (NADH-ubiquinone oxidoreductase 75 kDa subunit, mitochondrial (Homo sapiens, UniProt P28331); thermal proteome profiling, refers to: NDUFS1; HepG2 cell lysate; concentration not given, 57 over 37 °C; relative to: compound over control).
For `Cl.c1ccc(Oc2ccc(Oc3ccc4ncc(OCC5CCNCC5)nc4c3)cc2)cc1`, activity read “inactive” (Protein AF-9, with DOT1L (Homo sapiens, UniProt P42568); inhibitor, AlphaLISA; 10 µM).
`O=c1nc(SCc2cc(F)cc(C(F)(F)F)c2)nc(SCc2ccc3ncsc3c2)[nH]1` has a decatenated DNA of 69.2% (TOP2A; decatenation; 31.25 µM, replicate 1).
The Dmax of `CCC(C)(NCCc1cccc(C(F)(F)F)c1Cl)c1cccc(NC2=CC(=O)N(C3CCC(=O)NC3=O)C2=O)c1` (stereo not drawn) is reported as 74% (Cereblon/Ikaros; protein degradation, degrader, HiBiT luminescence; Jurkat).
`c1coc(-c2n[nH]cc2-c2ccnc3ccccc23)c1` — result for “log2 fold change”: 0.05 (Actin-regulating kinase PRK1 (PRK1, Candida albicans, UniProt Q5A961); kinase binding, MIB/MS competition; Candida albicans lysate; 1 µM; relative to: DMSO, negative = stronger binding).
With `CC[C@H](NC(=O)c1c(C)c(-c2ccccc2)nc2ccccc12)c1ccccc1` the Hill coefficient was 1.1 (TACR3 (Homo sapiens, UniProt P29371); radioligand binding, antagonist; reference compound).
`CC1=C(/C=C/C(C)=C/C=C/C(C)=C/C(=O)O)C(C)(C)CCC1`: “binding affinity fold change” 3 fold (CRABP2 (Homo sapiens, UniProt P29373, L122E/R112L/R133K); tryptophan fluorescence quenching; concentration not given; relative to: R132K:R111L:L121E over R132K:L121E, higher = stronger binding).
`Nc1nc2c(ncn2[C@@H]2O[C@H](COP(=O)(O)O)[C@@H](O)[C@H]2O)c(=O)[nH]1` has a reaction velocity of 0.0544 µM/s and 0.0492 µM/s and 0.0407 µM/s (GUK1 (Homo sapiens, UniProt Q16774); enzyme activity, NADH-coupled; 31.25 µM, together with: KCl 10 mM).
`CCC(C)(NCCc1ccc(C)cc1)c1cccc(NC2=CC(=O)N(C3CCC(=O)NC3=O)C2=O)c1` (stereo not drawn) has a Dmax of 74% (Cereblon/Ikaros; protein degradation, degrader, HiBiT luminescence; Jurkat).
For `Cc1nc(CSc2nc(SCc3ccc(C(F)(F)F)cc3)nc(=O)[nH]2)cs1`, the decatenated DNA was 27.8% (TOP2A; decatenation; 125 µM, replicate 2).
Under “LDL lipid peroxidation”, `NC/C(=C\F)COc1cccc(Cn2c(=S)[nH]c(=O)c3[nH]cnc32)c1` is recorded as 41.3% and 25.9% and 106% and 10.5% (Myeloperoxidase (MPO, Homo sapiens, UniProt P05164); inhibitor, cholesteryl ester hydroperoxide; 0.0185 µM; relative to: control).
The activation of `CN1CCN(c2cc(-c3ccncc3)c(-c3ccc4ccccc4c3)nn2)CC1` is reported as -1.6% (CXCR1 (Homo sapiens, UniProt P25024); agonist, FLIPR; 12.5 µM).
For `CC(=O)NCCCC[C@H](NC(=O)[C@H](CC(=O)O)NC(=O)[C@H](CO)NC(C)=O)C(=O)Nc1ccc2c(C)cc(=O)oc2c1`, the Km was 69 ± 3 µM (human Y386F/Y782F mutant enzyme; substrate, fluorogenic).
`NC(=O)C1CCN(C(=O)c2ccc(NCc3cnc4nc(N)nc(N)c4n3)cc2)CC1` gave a partition index of 0.87 (Pteridine reductase 1; hDHFR weight 10; relative to: LmPTR1, LmDHFR over hDHFR, 1.0 selective, 0.0 non-selective).
`C=CC(=O)N1CCC(COCC(=O)N2CCN(c3nc(-c4cnc(N)nc4C(F)F)nc(N4CCOC[C@@H]4C)n3)CC2)CC1` has a remaining binding of 99% (MYLK3 (Homo sapiens, UniProt Q32MK0); KINOMEscan; 1 µM).
With `O=C(O)c1ccc(Nc2ncc3c(n2)-c2ccc(Cl)cc2C(c2c(F)cccc2F)=NC3)cc1` the remaining activity was 100% (PAK2(h); kinase activity; 1 µM).
`Cc1c(COc2ccc(CN3CCCCC3C(=O)O)cc2Br)cccc1-c1ccccc1` (stereo not drawn) has a protein level of 0.936 (Cd274 (Mus musculus, UniProt Q9EP73); western blot; mouse B16-F10 tumour, tumour; dose not given, unit not given; relative to: β-actin, control).
`NCCCC(=O)O` — result for “normalised MST signal”: -0.0604 (SLC6A6 (Homo sapiens, UniProt P31641, L306A); binding, microscale thermophoresis; 15.6 µM, room temperature, together with: 50 nM labelled protein; higher = more binding).
With `O=c1nc(SCc2cc(F)cc(C(F)(F)F)c2)nc(SCc2ccc3ccccc3n2)[nH]1` the decatenated DNA was 0% (TOP2A; decatenation; 125 µM, replicate 2).
`CC1=C[C@H](O)CC(C)(C)[C@H]1/C=C/C(C)=C/C=C/C(C)=C/C=C/C=C(C)/C=C/C=C(C)/C=C/C1=C(C)C[C@@H](O)CC1(C)C` — result for “number of binding sites”: 0.78 (Beta-lactoglobulin (LGB, Bos taurus, UniProt P02754); fluorescence quenching; concentration not given, 308 K).
`CCN1CCC[C@H]1CNC(=O)c1c(O)c(Cl)cc(Cl)c1OC`: “log2 fold change” 0.013 (GPER1 (Homo sapiens, UniProt Q99527); β-arrestin recruitment, TANGO luminescence, refers to: GPER; concentration not given; relative to: basal luminescence).
`O=c1nc(SCc2cc(F)cc(C(F)(F)F)c2)nc(SCc2nc3ccccc3[nH]2)[nH]1` — result for “mean decatenated DNA”: 92% (TOP2A; decatenation; 15.6 µM).
For `c1ccc(CCCCCOCCc2ccc3[nH]cc(C4CCCCC4)c3c2)cc1`, the Emax was 19 to 25% (ATP2A2 (Sus scrofa, UniProt P11607); ATPase Vmax increase, activator; pig microsomes; 0.1 to 50 µM; relative to: vehicle).
The fold enrichment of `COCCC(=O)N1CCC(Oc2ccccc2)C1` (stereo not drawn) is reported as 1.59 (DDB1 (Homo sapiens, UniProt Q16531); binding, affinity selection mass spectrometry; relative to: other proteins in batch).
With `O=c1cc(-c2ccc(OS(=O)(=O)O)cc2)oc2cc(OS(=O)(=O)O)cc(OCc3cccc(COc4cc(OS(=O)(=O)O)cc5oc(-c6ccc(OS(=O)(=O)O)cc6)cc(=O)c45)n3)c12` the Km was 1220 ± 117 µM (Neutrophil elastase (ELANE, Homo sapiens, UniProt P08246); 750 nM, together with: chromogenic substrate).
The decatenated DNA of `O=c1nc(SCc2cc(F)cc(C(F)(F)F)c2)nc(SCc2cccc(C(F)(F)F)c2)[nH]1` is reported as 32.6% (TOP2A; decatenation; 15.6 µM, replicate 2).
With `CC[C@@H]1[C@H](F)C(=O)N[C@@H]1COc1nccc2cc(C(N)=O)c(OC)cc12` the inhibition was 8.5% (CHEK2 (Homo sapiens, UniProt O96017); ATP-site probe binding, ActivX profiling; THP-1 cell lysate; 0.04 mM, Lys1 site).
The decatenated DNA of `Cc1nc(CSc2nc(SCc3cc(F)cc(C(F)(F)F)c3)nc(=O)[nH]2)cs1` is reported as 98.9% (TOP2A; decatenation; 15.6 µM, replicate 1).
`CC[C@@H](C)[C@@H](NC(=O)[C@@H](Cc1ccc(O)cc1)NC(=O)[C@H]1CCCN1C(=O)[C@@H](CCCNC(=N)N)NC(=O)[C@H](N)Cc1c[nH]cn1)C(=O)N[C@H](C)C(=O)N[C@H](Cc1c[nH]cn1)C(=O)N[C@H](CCCNC(=N)N)C(=O)N[C@@H](C(=O)N[C@H](Cc1ccc(O)cc1)C(=O)N[C@H](CO)C(=O)N[C@H](Cc1ccccc1)C(N)=O)C(C)C`: “surface TFRC expression” 0.491 (Transferrin receptor protein 1 (Tfrc, Mus musculus, UniProt Q62351); flow cytometry; MC-38; 48 h, unit not given; relative to: 0 h).
`CCOc1ccc2c(-c3cc(C)nc(Nc4cc(OC)cc(C(F)(F)F)c4)n3)cnn2n1`: binding “no binding” (HIPK1 (Homo sapiens, UniProt Q86Z02); NanoBRET target engagement; live cells; concentration not given, no binding).
`c1ccc(-c2n[nH]cc2-c2ccnc3ccccc23)nc1` — result for “log2 fold change”: 1.25 (Mitogen-activated protein kinase MKC1 (MKC1, Candida albicans, UniProt P43068); kinase binding, competitor, MIB/MS competition, refers to: MKC1; Candida albicans cell lysate; 10 µM; relative to: DMSO).
`O=c1nc(SCc2ccc(C(F)(F)F)cc2)nc(SCc2ccc3sccc3c2)[nH]1` — result for “mean decatenated DNA”: 0.08% (TOP2A; decatenation; 125 µM).
The activation of `CCC(=O)NS(=O)(=O)c1ccc(-c2c(-c3ccccc3)noc2C)cc1` is reported as 0.85 fold (RARA (Homo sapiens, UniProt P10276); reporter gene, Gal4 hybrid reporter; 50 µM; relative to: vehicle).
With `Nc1nc(N)c2nc(CNc3ccc(C(=O)c4ccccc4)cc3)cnc2n1` the partition index was 0.95 (Pteridine reductase 1; hDHFR weight 10; relative to: LmPTR1, LmDHFR over hDHFR, 1.0 selective, 0.0 non-selective).
`Nc1ncnc2c1ncn2[C@@H]1O[C@H](COP(=O)(O)CP(=O)(O)OP(=O)(O)O)[C@@H](O)[C@H]1O` has a calcium influx of 76.7% and 90.8% and 84.8% and 84.6% (P2X purinoceptor 1 (P2RX1, Homo sapiens, UniProt P51575, K140A); calcium influx; 3.16 µM; relative to: ionomycin response).
